{"data": "Results from different studies", "note": "A part holds a random share of what one study measured. Substitutions count along the parent as printed."}
{"data": "Study 1", "target": "Centromere-binding protein 1, full length, N-terminal tag (CBF1, Saccharomyces cerevisiae, UniProt P17106, residues 1-351)", "method": "protein-binding microarray", "molecule type": "double-stranded DNA, one strand shown", "medium": "in vitro", "tested at": "0.8 µM", "notes": "whole 60-bp probe, no competitor", "direction": "higher = stronger binding", "constant ends, left off below": "… GTCTTGATTCGCTTGACGCTGCTG", "UniProt P17106, sequence (whole entry, looked up)": "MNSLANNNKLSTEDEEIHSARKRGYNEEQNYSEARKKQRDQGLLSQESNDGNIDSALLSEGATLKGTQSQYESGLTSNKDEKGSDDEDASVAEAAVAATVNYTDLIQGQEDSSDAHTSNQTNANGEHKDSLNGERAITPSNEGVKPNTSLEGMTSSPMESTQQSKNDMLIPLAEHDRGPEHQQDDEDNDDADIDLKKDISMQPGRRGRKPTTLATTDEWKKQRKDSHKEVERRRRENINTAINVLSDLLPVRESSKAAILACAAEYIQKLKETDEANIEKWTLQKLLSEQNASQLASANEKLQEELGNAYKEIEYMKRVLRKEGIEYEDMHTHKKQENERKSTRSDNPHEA"}
{"Sequence": "CTAATACAAAACGGCCACGAGTTTCAATCCCAGTTC", "fluorescence intensity [a.u.]": 563}
{"Sequence": "CTATTGAGAACCAGTCATCAGACTAATGAAAGCTTC", "fluorescence intensity [a.u.]": 566}
{"Sequence": "GAATAACCAGCGTTGCACGCGTCGTGCGGGTTCTAG", "fluorescence intensity [a.u.]": 538}
{"Sequence": "CTAACATCTACAGTCCACCTGCCCCTTCCTTCGTTC", "fluorescence intensity [a.u.]": 528}
{"Sequence": "CTAAAGCCAATCCATCTGATTGGTCATTTTACGTTC", "fluorescence intensity [a.u.]": 578}
{"Sequence": "CTATATATGTGAGCGCACGATCGCTCCAAAAACTTC", "fluorescence intensity [a.u.]": 505}
{"Sequence": "CTACGTTTTATATATCACGCTAAAGTGAGACTATTC", "fluorescence intensity [a.u.]": 616}
{"Sequence": "GAATAAGTAATTTCTAACGTGATAAAGTAGTTATAG", "fluorescence intensity [a.u.]": 688}
{"Sequence": "CTACATAGTGGTTACCACCAGATCCCGATGGAATTC", "fluorescence intensity [a.u.]": 485}
{"data": "Study 2", "target": "CCND2, cyclin fold, Cln2 fusion (human)", "method": "yeast growth competition, sequencing", "medium": "yeast", "notes": "weak parent motif", "baseline": "not given", "direction": "higher = stronger binding", "starting sequence": "PKMYT1 docking peptide (human); SFEPRNLLSLFED"}
{"Change": "SQEPRNLLSLFED [F2Q]", "normalised enrichment score": -0.0821}
{"Change": "TFEPRNLLSLFED [S1T]", "normalised enrichment score": -0.229}
{"Change": "SFESRNLLSLFED [P4S]", "normalised enrichment score": 0.088}
{"Change": "SGEPRNLLSLFED [F2G]", "normalised enrichment score": 0.234}
{"Change": "SFEPRNLLSGFED [L10G]", "normalised enrichment score": 0.349}
{"Change": "SFEPRNLTSLFED [L8T]", "normalised enrichment score": 0.316}
{"Change": "SFEPVNLLSLFED [R5V]", "normalised enrichment score": 0.222}
{"Change": "SVEPRNLLSLFED [F2V]", "normalised enrichment score": -0.105}
{"data": "Study 3", "target": "ABI1, truncated, D143A, DHFR fusion (Arabidopsis thaliana)", "method": "DHFR PCA, deep sequencing", "medium": "yeast", "notes": "methotrexate growth selection, single substitutions", "together with": "(+)-ABA 710 µM", "baseline": "wild-type fitted maximum", "direction": "higher = stronger binding", "starting sequence": "PYL1, truncated, DHFR fusion (Arabidopsis thaliana); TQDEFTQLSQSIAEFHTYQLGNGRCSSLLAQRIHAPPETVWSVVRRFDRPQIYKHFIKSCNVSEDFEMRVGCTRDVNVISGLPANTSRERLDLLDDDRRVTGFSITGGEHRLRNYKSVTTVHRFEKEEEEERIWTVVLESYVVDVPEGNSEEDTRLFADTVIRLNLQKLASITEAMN; partner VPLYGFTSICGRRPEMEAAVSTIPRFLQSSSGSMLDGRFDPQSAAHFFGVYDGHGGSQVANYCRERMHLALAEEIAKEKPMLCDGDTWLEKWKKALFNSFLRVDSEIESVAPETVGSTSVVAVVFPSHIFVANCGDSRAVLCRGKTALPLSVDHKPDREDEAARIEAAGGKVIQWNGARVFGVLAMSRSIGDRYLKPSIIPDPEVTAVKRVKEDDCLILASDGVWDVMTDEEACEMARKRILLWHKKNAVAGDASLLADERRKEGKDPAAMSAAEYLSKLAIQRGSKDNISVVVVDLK"}
{"Change": "S117I", "relative binding score": "3.56%"}
{"Change": "S9Q", "relative binding score": "105%"}
{"Change": "V70D", "relative binding score": "83.7%"}
{"Change": "L156H", "relative binding score": "95.3%"}
{"Change": "D95M", "relative binding score": "98.5%"}
{"Change": "D96E", "relative binding score": "111%"}
{"data": "Mixed results"}
{"Molecule": "PhoQ, residues 284 288 289 292 302 303 TTSMTC", "target": "PhoP, residues 12 14 15 18 19 LHSVW (Escherichia coli, UniProt P23836)", "assay": "Sort-seq, refers to: YFP reporter", "system": "E. coli", "setting": "PhoQ-PhoP variant library, together with: 10 µM Mg2+", "scale": "baseline: high Mg2+ state, higher = stronger signaling", "quantity": "fold induction", "result": 3.02}
{"note": "Some of these lines once more (study 2):"}
{"Change": "SQEPRNLLSLFED [F2Q]", "normalised enrichment score": -0.0821}
{"Change": "SFESRNLLSLFED [P4S]", "normalised enrichment score": 0.088}
